Experimental data gathered from unrelated publications.
Values joined by “and” are separate records of one study, mostly repeats; a detail may differ. Numbers after ± are the reported error.
UniProt Q9NPD5, sequence (whole entry, unmodified, looked up): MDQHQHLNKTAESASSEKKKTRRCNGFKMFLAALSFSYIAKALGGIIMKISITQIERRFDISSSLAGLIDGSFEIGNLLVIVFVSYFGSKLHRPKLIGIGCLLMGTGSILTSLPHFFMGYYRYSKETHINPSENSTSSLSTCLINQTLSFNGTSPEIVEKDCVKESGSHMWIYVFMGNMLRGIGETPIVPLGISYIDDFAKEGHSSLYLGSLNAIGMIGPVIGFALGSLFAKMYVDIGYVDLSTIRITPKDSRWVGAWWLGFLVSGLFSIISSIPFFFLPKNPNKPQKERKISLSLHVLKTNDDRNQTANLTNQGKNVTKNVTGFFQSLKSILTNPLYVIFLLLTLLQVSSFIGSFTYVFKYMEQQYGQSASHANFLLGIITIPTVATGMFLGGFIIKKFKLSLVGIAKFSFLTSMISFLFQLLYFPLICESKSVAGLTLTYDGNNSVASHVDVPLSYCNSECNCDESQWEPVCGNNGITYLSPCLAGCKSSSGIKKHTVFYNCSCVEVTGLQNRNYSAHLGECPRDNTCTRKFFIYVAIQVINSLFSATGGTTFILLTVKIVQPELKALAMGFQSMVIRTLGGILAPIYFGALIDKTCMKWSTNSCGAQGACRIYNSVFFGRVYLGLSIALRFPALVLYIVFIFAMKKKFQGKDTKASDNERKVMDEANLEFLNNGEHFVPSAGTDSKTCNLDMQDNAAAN

For CCCC(=O)OCSc1ccccc1C(=O)NCC(=O)NCCn1ccc(=O)c2cc3c(cc21)OCO3, the TC50 was greater than 100 µM (CEM-SS; cell viability, XTT; RPMI with 10% FBS; 6 days).
For CC[C@H](CO)N(CCN(N=O)[C@H](CC)CO)N=O, “revertant colonies per plate” read 19 ± 5 (Salmonella typhimurium; plate incorporation; TA1535, water; 50 µg/plate, without S9).
For Cc1cc(N)c2c(OCC(C)(C)C(=O)NC(C)C)cccc2n1, “mean revertant colonies” read 87 colonies/plate (Salmonella typhimurium; reverse mutation, plate incorporation; TA100; 10 µg/plate, with rat liver S9).
Cc1c(-c2ccc(N3CCc4cccc(C(=O)Nc5nc6ccccc6s5)c4C3)nc2C(=O)O)cnn1CC12CC3(C)CC(C)(C1)CC(OCCNCC[C@H](O)CO)(C3)C2: “cardiac output change” -26% (anaesthetised male beagle dogs; intravenous infusion, 0.3 mg/kg/min, 90 min; baseline: vehicle).
COc1cccc(-c2cccc(Nc3nccc(NC(C)C)n3)c2)c1 has an efflux ratio of 2.14 (P-glycoprotein (human MDR1); MDR1-MDCKII; 10 µM, 1 h, pH 7.4; baseline: B-A over A-B).
With Cc1cn([C@H]2C[C@H](N=[N+]=[N-])[C@@H](CO)O2)c(=O)[nH]c1=O the TC50 was greater than 0.5 µM (CEM-SS; XTT; no added glutathione).
CCn1cc(-c2cc(Cn3ccoc3=N)cc3c2CCN([C@@H](C)c2cc(OC)ccn2)C3=O)c(C(F)(F)F)n1 has an EC50 of 2.38 µM (HARA; cell growth; 120 h).
For CCCC(=O)OCSc1ccccc1C(=O)NCCn1ccc(=O)c2cc(OC)ccc21, the TC50 was 55 ± 4.75 µM (CEM-SS; cell viability, XTT; RPMI with 10% FBS; 6 days).
N=C(N)NCCCC(=O)O — result for “log2 fold change”: -0.149 (binding, MIDAS equilibrium dialysis LC-MS; A2AR-BRIL thermostabilized; concentration not given; baseline: no-protein control).
CC(C)Nc1ccnc(Nc2cccc(C(C)(C)C)c2)n1 gave a Papp (B-A) of 1.57 ± 0.68 ×10⁻⁶ cm/s (P-glycoprotein (human MDR1); MDR1-MDCKII; 10 µM, 1 h, pH 7.4).
The TC50 of CCCC(=O)OCSc1ccccc1C(=O)NCCOc1ccnc2ccc([N+](=O)[O-])cc12 is reported as 14.9 µM (CEM-SS; cell viability, XTT; RPMI with 10% FBS; 6 days).
For CC[C@H](C)C(=O)N1CCC(NC(=O)Nc2ccc(OC(F)(F)F)c(F)c2)CC1, the percent recovery was 81% (Caco-2; Caco-2 permeability; 10 µM, 60 min, pH 7.4 apical, 7.4 basolateral, mean; basolateral to apical).
The Km of CC(C)n1c(/C=C/C(O)CC(O)CC(=O)O)c(-c2ccc(F)cc2)c2ccccc21 (stereo not shown) is reported as 4.34 µM (SLCO1B3 (Homo sapiens, UniProt Q9NPD5, M233I); substrate, uptake; HEK293-A stably expressing SLCO1B3; 2 min).
CCc1cc(C(=O)NC)c2nccc(N3CCc4c(cc(Cn5ccnc5)cc4-c4cn(C)nc4C(F)(F)F)C3=O)c2c1 has a gastrocnemius weight of 2.85 ± 0.032 g (Sprague Dawley rats; oral, 50 mg/kg once daily, 7 days).
For CC(=O)NCC(=O)O, “log2 fold change” read -0.015 (binding, MIDAS equilibrium dialysis LC-MS; A2AR-BRIL thermostabilized; concentration not given; baseline: no-protein control).
Under “treatment-emergent adverse events”, O=C(Nc1nc2cccc(-c3ccc(CN4CCS(=O)(=O)CC4)cc3)n2n1)C1CC1 is recorded as 0% (item: vertigo; rheumatoid arthritis patients; oral, 200 mg once daily, 4 weeks, any relatedness).
The TC50 of CCCC(=O)OCSc1ccccc1C(=O)NCCn1ccc(=O)c2cc(C)ccc21 is reported as 33.9 ± 3.88 µM (CEM-SS; cell viability, XTT; RPMI with 10% FBS; 6 days).
With N#Cc1ccc2c(c1)[C@H]1CCCN(C(=O)c3ccc4[nH]cnc4c3)[C@H]1C2 the androstenedione level was 7.5 nmol/L (human, male; 240 mg, end of trial).
The TC50 of CCCC(=O)OCSc1ccccc1C(=O)NCCOc1ccnc2ccc(OC)cc12 is reported as 73.8 ± 8.3 µM (CEM-SS; cell viability, XTT; RPMI with 10% FBS; 6 days).
For Cn1cc(-c2ccc(-c3cncc(Cl)c3N3CCC4(CCNC4=O)CC3)cc2)cn1, “log2 fold change” read 1.87 (COLO 205; gene expression, microarray, item: ZFP14 mRNA; concentration not given, 2 h; baseline: untreated cells).
COc1cc(/C=C/C=C2\SC(=S)NC2=O)cc(OC)c1O gave a viability of 0.985 and 0.991 (HeLa; CellTiter-Glo; 1.25 µM, 24 h, unit not given; baseline: untreated).
For CN(C(=O)C(C)(C)c1cc(C(F)(F)F)cc(C(F)(F)F)c1)c1cnc(N2C[C@H]3COCCN3C[C@H]2CO)cc1-c1ccc(F)cc1[14CH3], “fraction metabolized via UGT” read 5 to 12% (cryopreserved human hepatocytes; 5 to 0.5 µM, added: cobicistat and CYP3cide).
Under “patients with adverse event”, CNC(=O)c1ccc(-c2cnc3ncc(Cc4ccc5ncccc5c4)n3n2)cc1F is recorded as 0% (item: Constipation; hepatocellular carcinoma patients; oral, 600 mg twice daily, expansion cohort, grade 3-4).
For CCCC(=O)OCSc1ccccc1C(=O)NCCn1cc(C(=O)NCc2cc(C)ccn2)c(=O)c2cc3c(cc21)OCO3, the TC50 was greater than 100 µM (CEM-SS; cell viability, XTT; RPMI with 10% FBS; 6 days).
For CC(C)c1nc(N(C)S(C)(=O)=O)nc(-c2ccc(F)cc2)c1/C=C/[C@@H](O)C[C@@H](O)CC(=O)O, the Km was 13.6 ± 9.3 µM (SLCO1B3 (Homo sapiens, UniProt Q9NPD5); substrate, uptake; HEK293-A stably expressing SLCO1B3; 2 min).
Cc1cc(Nc2ccc(S(F)(F)(F)(F)F)cc2)n2nc(C(C)(F)F)nc2n1: “patients with abdominal pain” 9.1% (Plasmodium falciparum; P. falciparum malaria patients; oral, 250 mg).
CNCCOC12CC3(C)CC(C)(CC(Cn4ncc(-c5ccc(N6CCc7cccc(C(=O)Nc8nc9ccccc9s8)c7C6)nc5C(=O)O)c4C)(C3)C1)C2: “cardiac output change” -23% (anaesthetised male beagle dogs; intravenous bolus, 0.03 mg/kg, 75 min; baseline: baseline).
CNC(=O)c1cc(Oc2ccc(NC(=O)Nc3ccc(Cl)c(C(F)(F)F)c3)cc2)ccn1 gave a Vmax of 307 ± 41.4 pmol/mg protein/min (SLCO1B3 (Homo sapiens, UniProt Q9NPD5, M233I/S112A); uptake, substrate; HEK293-A stably expressing SLCO1B3; 2 min).
